Results pooled from the literature.
Protocols differ between the studies behind these lines. “And” joins repeats or separate records; there may be more than shown. ± marks the error that the study gave.

CC(C)C[C@@H]1NC(=O)CNC(=O)[C@H](CC(N)=O)NC(=O)[C@H](CCCNC(=N)N)NC(=O)[C@H]([C@@H](C)O)NC(=O)[C@@H]2CSSC[C@@H]3NC(=O)[C@H]([C@@H](C)O)NC(=O)CNC(=O)CNC(=O)[C@H](C(C)C)NC(=O)[C@@H]4CSSC[C@H](NC(=O)[C@H]([C@@H](C)O)NC(=O)[C@H](CSSC[C@H](NC(=O)[C@H](C(C)C)NC(=O)[C@@H]5CCCN5C1=O)C(=O)NCC(=O)N[C@@H](CCCCN)C(=O)N[C@@H]([C@@H](C)O)C(=O)N4)NC(=O)CNC(=O)[C@@H]1CCCN1C(=O)[C@H]([C@@H](C)O)NC(=O)[C@H](CC(N)=O)NC3=O)C(=O)N[C@@H](CO)C(=O)N[C@@H](Cc1c[nH]c3ccccc13)C(=O)N1CCC[C@H]1C(=O)N[C@@H](C(C)C)C(=O)N2
remaining peptide (HPLC; water; 180 µM, 14 days, 37 °C, deamidation stability): 98.2 ± 0.1%

NNc1ccccc1
remaining fraction (PBS; 12 h, 37 °C; baseline: initial amount): 0.45 and 0.41 and 0.52

CC(C)C[C@@H]1NC(=O)CNC(=O)[C@H](CC(N)=O)NC(=O)[C@H](CCCNC(=N)N)NC(=O)[C@H]([C@@H](C)O)NC(=O)[C@@H]2CSSC[C@@H]3NC(=O)[C@H]([C@@H](C)O)NC(=O)CNC(=O)[C@H](CCCCN)NC(=O)[C@H](C(C)C)NC(=O)[C@@H]4CSSC[C@H](NC(=O)[C@H]([C@@H](C)O)NC(=O)[C@H](CSSC[C@H](NC(=O)[C@H](C(C)C)NC(=O)[C@@H]5CCCN5C1=O)C(=O)NCC(=O)N[C@@H](CCC(=O)O)C(=O)N[C@@H]([C@@H](C)O)C(=O)N4)NC(=O)CNC(=O)[C@@H]1CCCN1C(=O)[C@H]([C@@H](C)O)NC(=O)[C@H](CC(N)=O)NC3=O)C(=O)N[C@@H](CO)C(=O)N[C@@H](Cc1c[nH]c3ccccc13)C(=O)N1CCC[C@H]1C(=O)N[C@@H](C(C)C)C(=O)N2
remaining peptide (HPLC; ammonium bicarbonate; 180 µM, 7 days, pH 9.0, 25 °C, deamidation stability): 97.3 ± 0.4%

CC(C)[C@@H]1NC(=O)CNC(=O)[C@H](CC(N)=O)NC(=O)[C@H](CCCNC(=N)N)NC(=O)[C@H](Cc2ccc(O)cc2)NC(=O)[C@H](C(C)C)NC(=O)[C@@H](NC(=O)[C@@H](NC(=O)[C@H](CC(N)=O)NC(=O)[C@H](Cc2c[nH]c3ccccc23)NC(=O)[C@H](C)NC(=O)[C@H](Cc2ccccc2)NC(=O)CN)C(C)C)CSSC[C@@H](C(=O)N[C@@H](Cc2cnc[nH]2)C(=O)N[C@@H](CCCNC(=N)N)C(=O)N[C@@H](CCCNC(=N)N)C(=O)N[C@@H](C)C(=O)N[C@@H](CC(N)=O)C(N)=O)NC(=O)[C@H](C(C)C)NC(=O)[C@H](CCCNC(=N)N)NC1=O
remaining peptide (HPLC; trypsin; 2560 µM, 4.00 h, together with: trypsin 1 % w/v): 2.4% and 1.08% and 5.46%

CSCC[C@H](NC(=O)[C@H](CCCCN)NC(=O)[C@H](CCCNC(=N)N)NC(=O)[C@H](CO)NC(=O)[C@H](Cc1c[nH]c2ccccc12)NC(=O)[C@H](CCCNC(=N)N)NC(=O)[C@H](CC(C)C)NC(=O)[C@H](CO)NC(C)=O)C(=O)N1CCC[C@H]1C(=O)N[C@@H](CS)C(=O)N[C@H](C(=O)N[C@@H](CO)C(N)=O)C(C)C
remaining activity (12G5 competition, SUP-T1 cells; human plasma; concentration not given, 2 h): 77 ± 9%

C/C(=C\CCP(=O)(OCOC(=O)C1CCOCC1)Oc1ccc(C(C)C)cc1)CO (centres unmarked)
remaining compound (50% CD1 mouse plasma; 100 µM, 2 h, pH 7.5, 37 °C): 0%

CC(C)C[C@@H]1NC(=O)CNC(=O)[C@H](CC(N)=O)NC(=O)[C@H](CCCNC(=N)N)NC(=O)[C@H]([C@@H](C)O)NC(=O)[C@@H]2CSSC[C@@H]3NC(=O)[C@H]([C@@H](C)O)NC(=O)CNC(=O)CNC(=O)[C@H](C(C)C)NC(=O)[C@@H]4CSSC[C@H](NC(=O)[C@H]([C@@H](C)O)NC(=O)[C@H](CSSC[C@H](NC(=O)[C@H](C(C)C)NC(=O)[C@@H]5CCCN5C1=O)C(=O)NCC(=O)N[C@@H](CCC(=O)O)C(=O)N[C@@H](CCCCN)C(=O)N4)NC(=O)CNC(=O)[C@@H]1CCCN1C(=O)[C@H]([C@@H](C)O)NC(=O)[C@H](CC(N)=O)NC3=O)C(=O)N[C@@H](CO)C(=O)N[C@@H](Cc1c[nH]c3ccccc13)C(=O)N1CCC[C@H]1C(=O)N[C@@H](C(C)C)C(=O)N2
remaining peptide (HPLC; ammonium bicarbonate 0.1 M; 180 µM, 7 days, pH 9.0, 37 °C, deamidation stability): 77 ± 2.7%

CC[C@@H](C)[C@@H](NC(=O)[C@@H](Cc1ccc(O)cc1)NC(=O)[C@H]1CCCN1C(=O)[C@@H](CCCNC(=N)N)NC(=O)[C@H](N)Cc1c[nH]cn1)C(=O)N[C@H](C)C(=O)N[C@H](Cc1c[nH]cn1)C(=O)N[C@H](CCCNC(=N)N)C(=O)N[C@@H](C(=O)N[C@H](Cc1ccc(O)cc1)C(=O)N[C@H](CO)C(=O)N[C@H](Cc1ccccc1)C(N)=O)C(C)C
remaining compound (10% human serum; 2 h): 101% and 99.7%

CC(C)C[C@@H]1NC(=O)CNC(=O)[C@H](CC(N)=O)NC(=O)[C@H](CCCNC(=N)N)NC(=O)[C@H]([C@@H](C)O)NC(=O)[C@@H]2CSSC[C@@H]3NC(=O)[C@H]([C@@H](C)O)NC(=O)CNC(=O)CNC(=O)[C@H](C(C)C)NC(=O)[C@@H]4CSSC[C@H](NC(=O)[C@H](CCCCN)NC(=O)[C@H](CSSC[C@H](NC(=O)[C@H](C(C)C)NC(=O)[C@@H]5CCCN5C1=O)C(=O)NCC(=O)N[C@@H](CCC(=O)O)C(=O)N[C@@H]([C@@H](C)O)C(=O)N4)NC(=O)CNC(=O)[C@@H]1CCCN1C(=O)[C@H]([C@@H](C)O)NC(=O)[C@H](CC(N)=O)NC3=O)C(=O)N[C@@H](CO)C(=O)N[C@@H](Cc1c[nH]c3ccccc13)C(=O)N1CCC[C@H]1C(=O)N[C@@H](C(C)C)C(=O)N2
remaining peptide (HPLC; ammonium bicarbonate; 180 µM, 7 days, pH 9.0, 25 °C, deamidation stability): 96.1 ± 0.4%

CC[C@@H](C)[C@@H](NC(C)=O)C(=O)N[C@@H](CC(C)C)C(=O)N[C@@H](CCCNC(=N)N)C(=O)N[C@@H](Cc1c[nH]c2ccccc12)C(=O)N[C@@H](CO)C(=O)N[C@@H](CCCNC(=N)N)C(=O)N[C@@H](CCCCN)C(=O)N[C@@H](CC(C)C)C(=O)N1CCC[C@H]1C(=O)N[C@@H](CS)C(=O)N[C@H](C(=O)N[C@@H](CO)C(N)=O)C(C)C
remaining activity (12G5 competition, SUP-T1 cells; human plasma; 20 µM, 2 h, 37 °C): 60 ± 8%

CC[C@@H](C)[C@@H](NC(=O)[C@@H](Cc1ccc(O)cc1)NC(=O)[C@H]1CCCN1C(=O)[C@@H](CCCNC(=N)N)NC(=O)[C@H](N)Cc1c[nH]cn1)C(=O)N[C@H](C)C(=O)N[C@H](Cc1c[nH]cn1)C(=O)N[C@H](CCCNC(=N)N)C(=O)N[C@H](CCCCNC(=O)c1cccc(S(=O)(=O)F)c1)C(=O)N[C@H](Cc1ccc(O)cc1)C(=O)N[C@H](CO)C(=O)N[C@H](Cc1ccccc1)C(N)=O
remaining compound (10% human serum; 0 h): 107% and 87.6% and 106%

COc1cc(N2CC[C@@]3(O)C(=O)c4cc(C)c(C)cc4N=C23)ccn1
remaining parent compound (aqueous solution; 24 h, bright light): 93%

CC[C@H](C)[C@H](NC(=O)[C@H](CCCCN)NC(=O)[C@H](CCCCN)NC(=O)CNC(=O)[C@H](CCCCN)NC(=O)[C@H](CC(C)C)NC(=O)[C@H](CCCCN)NC(=O)[C@H](CCCNC(=N)N)NC(=O)[C@@H](NC(=O)[C@H](CC(C)C)NC(=O)[C@H](CCCNC(=N)N)NC(=O)[C@@H](N)CCCNC(=N)N)[C@@H](C)CC)C(=O)N[C@@H](Cc1ccc(O)cc1)C(=O)N[C@@H](CC(C)C)C(=O)N[C@@H](Cc1ccc(O)cc1)C(=O)N[C@@H](Cc1ccccc1)C(=O)N[C@@H](CCCCN)C(=O)N[C@@H](CC(C)C)C(=O)N[C@@H](CCC(N)=O)C(=O)N[C@@H](CC(C)C)C(=O)N[C@@H](CC(C)C)C(=O)N[C@@H](CCCCN)C(=O)N[C@@H](CCCCN)C(N)=O
remaining intact peptide (LC-MS; 25% human serum; 200 µM, 12 h, 37 °C): > 90%

COc1ccc(C(=O)OCOP(=O)(CC/C=C(\C)COC(C)=O)Oc2ccc(C(C)C)cc2)cc1 (centres unmarked)
remaining compound (50% CD1 mouse plasma; 100 µM, 2 h, pH 7.5, 37 °C): 0%

A few entries again:
CC(C)C[C@@H]1NC(=O)CNC(=O)[C@H](CC(N)=O)NC(=O)[C@H](CCCNC(=N)N)NC(=O)[C@H]([C@@H](C)O)NC(=O)[C@@H]2CSSC[C@@H]3NC(=O)[C@H]([C@@H](C)O)NC(=O)CNC(=O)CNC(=O)[C@H](C(C)C)NC(=O)[C@@H]4CSSC[C@H](NC(=O)[C@H](CCCCN)NC(=O)[C@H](CSSC[C@H](NC(=O)[C@H](C(C)C)NC(=O)[C@@H]5CCCN5C1=O)C(=O)NCC(=O)N[C@@H](CCC(=O)O)C(=O)N[C@@H]([C@@H](C)O)C(=O)N4)NC(=O)CNC(=O)[C@@H]1CCCN1C(=O)[C@H]([C@@H](C)O)NC(=O)[C@H](CC(N)=O)NC3=O)C(=O)N[C@@H](CO)C(=O)N[C@@H](Cc1c[nH]c3ccccc13)C(=O)N1CCC[C@H]1C(=O)N[C@@H](C(C)C)C(=O)N2
remaining peptide (HPLC; ammonium bicarbonate; 180 µM, 7 days, pH 9.0, 25 °C, deamidation stability): 96.1 ± 0.4%

COc1cc(N2CC[C@@]3(O)C(=O)c4cc(C)c(C)cc4N=C23)ccn1
remaining parent compound (aqueous solution; 24 h, bright light): 93%
